Experimental data pooled from the literature.
Parts stem from different laboratories: compare values within a part only.
UniProt P53779, sequence (whole entry, looked up): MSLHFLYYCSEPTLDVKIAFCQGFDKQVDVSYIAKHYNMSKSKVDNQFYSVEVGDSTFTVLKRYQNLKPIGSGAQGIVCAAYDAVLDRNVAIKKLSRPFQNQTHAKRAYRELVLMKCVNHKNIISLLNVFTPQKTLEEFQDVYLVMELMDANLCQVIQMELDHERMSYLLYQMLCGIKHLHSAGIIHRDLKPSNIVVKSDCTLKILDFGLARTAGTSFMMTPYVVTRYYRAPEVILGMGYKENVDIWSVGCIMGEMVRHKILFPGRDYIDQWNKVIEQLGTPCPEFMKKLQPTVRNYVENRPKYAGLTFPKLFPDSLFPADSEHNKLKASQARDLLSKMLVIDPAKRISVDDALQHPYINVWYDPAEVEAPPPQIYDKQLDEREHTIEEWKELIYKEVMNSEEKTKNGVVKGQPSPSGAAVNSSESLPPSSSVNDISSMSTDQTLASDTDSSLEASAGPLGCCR
UniProt Q6ZWH5, sequence (whole entry, looked up): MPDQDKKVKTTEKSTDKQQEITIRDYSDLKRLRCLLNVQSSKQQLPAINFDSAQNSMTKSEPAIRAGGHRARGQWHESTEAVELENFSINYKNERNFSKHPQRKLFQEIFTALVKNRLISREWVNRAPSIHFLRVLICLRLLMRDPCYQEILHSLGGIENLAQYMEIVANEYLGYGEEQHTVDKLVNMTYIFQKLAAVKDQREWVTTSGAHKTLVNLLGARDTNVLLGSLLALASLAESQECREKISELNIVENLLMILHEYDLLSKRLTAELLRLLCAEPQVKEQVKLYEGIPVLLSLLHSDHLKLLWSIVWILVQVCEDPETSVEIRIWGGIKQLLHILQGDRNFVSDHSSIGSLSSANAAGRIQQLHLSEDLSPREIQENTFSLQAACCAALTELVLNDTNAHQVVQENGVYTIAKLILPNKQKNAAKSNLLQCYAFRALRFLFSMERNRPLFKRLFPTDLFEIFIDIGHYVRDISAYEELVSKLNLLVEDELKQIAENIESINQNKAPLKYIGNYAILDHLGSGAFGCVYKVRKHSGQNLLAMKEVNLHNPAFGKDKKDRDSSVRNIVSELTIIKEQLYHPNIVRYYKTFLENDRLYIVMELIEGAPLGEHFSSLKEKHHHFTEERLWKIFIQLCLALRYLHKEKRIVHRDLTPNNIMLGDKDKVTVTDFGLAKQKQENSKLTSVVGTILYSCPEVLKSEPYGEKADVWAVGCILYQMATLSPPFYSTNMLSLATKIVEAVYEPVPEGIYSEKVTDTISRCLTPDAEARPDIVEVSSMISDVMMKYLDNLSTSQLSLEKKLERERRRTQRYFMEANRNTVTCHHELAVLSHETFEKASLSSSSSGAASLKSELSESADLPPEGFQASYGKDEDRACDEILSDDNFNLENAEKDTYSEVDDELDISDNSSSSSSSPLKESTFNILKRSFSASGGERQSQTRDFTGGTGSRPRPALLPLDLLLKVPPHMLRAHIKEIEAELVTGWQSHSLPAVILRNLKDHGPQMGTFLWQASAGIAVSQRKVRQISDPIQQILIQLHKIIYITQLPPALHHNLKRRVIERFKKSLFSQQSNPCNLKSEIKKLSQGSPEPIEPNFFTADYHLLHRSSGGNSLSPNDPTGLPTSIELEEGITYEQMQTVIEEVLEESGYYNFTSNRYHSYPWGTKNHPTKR
UniProt Q9H2G2, sequence (whole entry, looked up): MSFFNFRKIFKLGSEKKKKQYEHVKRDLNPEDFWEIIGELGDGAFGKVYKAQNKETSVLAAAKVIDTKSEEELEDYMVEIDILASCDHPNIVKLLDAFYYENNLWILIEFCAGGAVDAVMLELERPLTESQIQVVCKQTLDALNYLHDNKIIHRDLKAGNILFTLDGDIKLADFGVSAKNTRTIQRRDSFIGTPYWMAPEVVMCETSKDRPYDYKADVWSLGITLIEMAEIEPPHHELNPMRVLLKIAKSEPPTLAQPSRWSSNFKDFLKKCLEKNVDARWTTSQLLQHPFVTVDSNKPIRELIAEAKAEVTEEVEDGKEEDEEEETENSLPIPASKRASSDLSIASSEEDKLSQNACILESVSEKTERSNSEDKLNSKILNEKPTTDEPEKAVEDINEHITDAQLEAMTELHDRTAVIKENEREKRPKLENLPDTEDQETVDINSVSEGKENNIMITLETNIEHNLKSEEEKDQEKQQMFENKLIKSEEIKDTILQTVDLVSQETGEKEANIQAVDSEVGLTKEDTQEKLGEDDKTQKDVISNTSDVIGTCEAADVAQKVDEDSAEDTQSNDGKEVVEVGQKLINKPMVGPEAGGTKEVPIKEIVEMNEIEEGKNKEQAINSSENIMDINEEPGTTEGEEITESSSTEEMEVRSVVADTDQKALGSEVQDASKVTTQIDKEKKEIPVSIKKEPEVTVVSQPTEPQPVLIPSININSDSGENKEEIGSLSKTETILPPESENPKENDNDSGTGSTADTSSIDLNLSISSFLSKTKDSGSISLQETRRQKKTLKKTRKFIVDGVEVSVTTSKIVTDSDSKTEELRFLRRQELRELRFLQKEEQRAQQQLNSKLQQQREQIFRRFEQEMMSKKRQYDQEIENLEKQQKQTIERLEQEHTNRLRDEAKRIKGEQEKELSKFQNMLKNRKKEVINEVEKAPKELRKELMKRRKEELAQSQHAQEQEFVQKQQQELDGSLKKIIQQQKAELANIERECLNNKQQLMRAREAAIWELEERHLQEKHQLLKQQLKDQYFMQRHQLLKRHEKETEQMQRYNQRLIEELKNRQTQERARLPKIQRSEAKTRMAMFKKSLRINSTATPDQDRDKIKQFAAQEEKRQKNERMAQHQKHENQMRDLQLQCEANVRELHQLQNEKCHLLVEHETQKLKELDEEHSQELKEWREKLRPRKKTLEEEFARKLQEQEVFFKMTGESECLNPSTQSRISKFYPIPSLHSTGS
UniProt P34947, sequence (whole entry, looked up): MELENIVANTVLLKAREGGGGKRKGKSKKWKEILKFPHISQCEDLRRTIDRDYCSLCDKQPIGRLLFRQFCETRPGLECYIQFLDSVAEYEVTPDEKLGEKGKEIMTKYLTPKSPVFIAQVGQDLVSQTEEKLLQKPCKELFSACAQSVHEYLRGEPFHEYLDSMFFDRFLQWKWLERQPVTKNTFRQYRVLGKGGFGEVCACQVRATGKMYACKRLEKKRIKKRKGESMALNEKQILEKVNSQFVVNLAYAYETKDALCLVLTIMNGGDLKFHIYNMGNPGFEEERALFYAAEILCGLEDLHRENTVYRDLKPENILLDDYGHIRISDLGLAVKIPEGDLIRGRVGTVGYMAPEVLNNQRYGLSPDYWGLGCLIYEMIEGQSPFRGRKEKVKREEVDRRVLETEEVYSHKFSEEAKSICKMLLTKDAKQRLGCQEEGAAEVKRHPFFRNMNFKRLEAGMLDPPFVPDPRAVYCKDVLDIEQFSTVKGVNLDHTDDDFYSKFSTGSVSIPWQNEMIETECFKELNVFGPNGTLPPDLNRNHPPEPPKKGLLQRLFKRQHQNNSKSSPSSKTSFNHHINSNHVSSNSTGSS
UniProt Q8IU85, sequence (whole entry, looked up): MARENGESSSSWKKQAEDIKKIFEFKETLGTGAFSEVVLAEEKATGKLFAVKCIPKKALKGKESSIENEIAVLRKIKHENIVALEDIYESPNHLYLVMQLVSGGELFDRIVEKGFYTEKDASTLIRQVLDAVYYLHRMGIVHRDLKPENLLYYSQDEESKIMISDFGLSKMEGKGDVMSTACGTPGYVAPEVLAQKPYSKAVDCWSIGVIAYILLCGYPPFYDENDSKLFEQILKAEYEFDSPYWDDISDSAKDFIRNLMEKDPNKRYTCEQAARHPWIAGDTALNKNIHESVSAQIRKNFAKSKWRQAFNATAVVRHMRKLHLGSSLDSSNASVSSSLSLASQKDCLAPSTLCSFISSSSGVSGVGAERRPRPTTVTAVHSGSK

Sample 1 — effect on: cell-free assay; technique: competition with immobilised ligand; tested at: 1 µM; endpoint: remaining binding
SMILES: N#Cc1ccc(Nc2ccc3[nH]c(=O)[nH]c3c2)c(Cl)c1
Dual specificity protein kinase CLK1 (CLK1, Homo sapiens, UniProt P49759): 100%
Cytoplasmic tyrosine-protein kinase BMX (BMX, Homo sapiens, UniProt P51813): 100%
Serine/threonine-protein kinase TAO1 (TAOK1, Homo sapiens, UniProt Q7L7X3): 97%
Receptor-interacting serine/threonine-protein kinase 1 (RIPK1, Homo sapiens, UniProt Q13546): 100%
Serine/threonine-protein kinase Nek10 (NEK10, Homo sapiens, UniProt Q6ZWH5): 100%
TRAF2 and NCK-interacting protein kinase (TNIK, Homo sapiens, UniProt Q9UKE5): 99%
Mitogen-activated protein kinase kinase kinase kinase 5 (MAP4K5, Homo sapiens, UniProt Q9Y4K4): 77%
Fibroblast growth factor receptor 4 (FGFR4, Homo sapiens, UniProt P22455): 100%
Serine/threonine-protein kinase Sgk3 (SGK3, Homo sapiens, UniProt Q96BR1): 100%

Sample 2 — organism: Sarcocystis neurona; effect on: parasite growth; tested at: 10 µM; baseline: untreated; endpoint: log2 fold change
Br.O=C1CC2(CCCC2)CC(=O)N1CCNCC1COc2ccccc2O1 (centres unmarked): -0.48
O=c1[nH]c(=O)n([C@H]2C[C@H](O)[C@@H](CO)O2)cc1F: -0.96
CC1=C(C/C=C(\C)CCC[C@H](C)CCC[C@H](C)CCCC(C)C)C(=O)c2ccccc2C1=O: 0.31
CC1CCN(CCCC(=O)c2ccc(F)cc2)CC1.Cl: 0.26
CCCCC(=O)O[C@H]1CC[C@H]2[C@@H]3CCc4cc(O)ccc4[C@H]3CC[C@]12C: 0.33
COc1cc(C[C@@H](CO)[C@H](CO)Cc2ccc(O)c(OC)c2)ccc1O: 0.3
CNCCC(Oc1ccc(C(F)(F)F)cc1)c1ccccc1.Cl (centres unmarked): 0.28
CCCN[C@H]1CCc2nc(N)sc2C1.Cl: 0.46
CCN(CC)CCNC(=O)c1cc(Cl)c(N)cc1OC.Cl: 0.26
CC(C)NCC(O)COc1cccc2ccccc12.Cl (centres unmarked): 0.3
C[C@]12CC[C@@H]3c4ccc(O)cc4CC[C@H]3[C@@H]1CC[C@@H]2O: 0.5
CN(CCO)CC(O)Cn1cnc2c1c(=O)n(C)c(=O)n2C.O=C(O)c1cccnc1 (centres unmarked): 0.25
COc1ccc(CC(C)NCC(O)c2ccc(O)c(NC=O)c2)cc1.COc1ccc(CC(C)NCC(O)c2ccc(O)c(NC=O)c2)cc1.O.O.O=C(O)/C=C/C(=O)O (centres unmarked): 0.32

Sample 3 — SMILES: O=C1NC(=O)/C(=C/c2ccc3nccnc3c2)S1; effect on: enzyme activity; action: inhibitor; tested at: 0.5 µM; baseline: control; endpoint: remaining activity
Aurora kinase A (AURKA, Homo sapiens, UniProt O14965): 97.2%
Mitogen-activated protein kinase 10 (MAPK10, Homo sapiens, UniProt P53779): 96%
Serine/threonine-protein kinase D1 (PRKD1, Homo sapiens, UniProt Q15139): 94.8%
Mitogen-activated protein kinase kinase kinase 2 (MAP3K2, Homo sapiens, UniProt Q9Y2U5): 108%
Casein kinase II subunit alpha' (CSNK2A2, Homo sapiens, UniProt P19784): 3.08%
G protein-coupled receptor kinase 5 (GRK5, Homo sapiens, UniProt P34947): 105%
Calcium/calmodulin-dependent protein kinase type 1D (CAMK1D, Homo sapiens, UniProt Q8IU85): 102%
STE20-like serine/threonine-protein kinase (SLK, Homo sapiens, UniProt Q9H2G2): 96.3%
Rho-associated protein kinase 2 (ROCK2, Homo sapiens, UniProt O75116): 91.3%
Protein-tyrosine kinase 2-beta (PTK2B, Homo sapiens, UniProt Q14289): 106%
Proto-oncogene tyrosine-protein kinase ROS (ROS1, Homo sapiens, UniProt P08922): 92.3%
Homeodomain-interacting protein kinase 3 (HIPK3, Homo sapiens, UniProt Q9H422): 92.4%
Serine/threonine-protein kinase N2 (PKN2, Homo sapiens, UniProt Q16513): 107%
Dual specificity tyrosine-phosphorylation-regulated kinase 4 (DYRK4, Homo sapiens, UniProt Q9NR20): 96.5%
Cyclin-dependent kinase 7 (CDK7, Homo sapiens, UniProt P50613): 85.2%
Serine/threonine-protein kinase BRSK1 (BRSK1, Homo sapiens, UniProt Q8TDC3): 92.4%
Epidermal growth factor receptor (EGFR, Homo sapiens, UniProt P00533): 81.6%
Calcium/calmodulin-dependent protein kinase type 1G (CAMK1G, Homo sapiens, UniProt Q96NX5): 105%
Cyclin-dependent kinase 2, with cyclin A (CDK2, Homo sapiens, UniProt P24941): 99.7%
Mitogen-activated protein kinase kinase kinase 8 (MAP3K8, Homo sapiens, UniProt P41279): 99.6%
Serine/threonine-protein kinase Nek9 (NEK9, Homo sapiens, UniProt Q8TD19): 111%
Proto-oncogene tyrosine-protein kinase receptor Ret (RET, Homo sapiens, UniProt P07949): 97.7%
Myotonin-protein kinase (DMPK, Homo sapiens, UniProt Q09013): 112%
NT-3 growth factor receptor (NTRK3, Homo sapiens, UniProt Q16288): 95.3%

Sample 4 — technique: LC-MS/MS; item: S-adenosylmethionine; species: human patients; matrix: plasma; endpoint: plasma SAM concentration
SMILES: COc1ccc(-c2c(Nc3ccccn3)[nH]c3c(C4=CCCCC4)c(-c4ccccc4)nn3c2=O)cc1
200 mg BID, 1 h, mean: 11 ng/mL
200 mg BID, 6 h, median: 13.4 ng/mL
50 mg QD, 1 h, geometric mean: 23.6 ng/mL
400 mg QD, 4 h, geometric mean: 18 ng/mL
200 mg BID, 6 h, geometric mean: 11.2 ng/mL
50 mg QD, 1 h, median: 20.8 ng/mL
200 mg BID, 1 h, geometric mean: 10.7 ng/mL

Excerpt of the above (sample 3):
Rho-associated protein kinase 2 (ROCK2, Homo sapiens, UniProt O75116): 91.3%
Protein-tyrosine kinase 2-beta (PTK2B, Homo sapiens, UniProt Q14289): 106%
Proto-oncogene tyrosine-protein kinase ROS (ROS1, Homo sapiens, UniProt P08922): 92.3%
Homeodomain-interacting protein kinase 3 (HIPK3, Homo sapiens, UniProt Q9H422): 92.4%
Serine/threonine-protein kinase N2 (PKN2, Homo sapiens, UniProt Q16513): 107%
Dual specificity tyrosine-phosphorylation-regulated kinase 4 (DYRK4, Homo sapiens, UniProt Q9NR20): 96.5%
Cyclin-dependent kinase 7 (CDK7, Homo sapiens, UniProt P50613): 85.2%
